Measured values gathered from unrelated publications.
Numbered parts are unrelated; each lists some results of a single study.

Study 1 — method: universal PBM; molecule type: double-stranded DNA, one strand shown; medium: in vitro; tested at: 600 nM; reading: higher = stronger binding
Target: Sal-like protein 4, full length isoform A (SALL4, Homo sapiens, UniProt Q9UJQ4, residues 1-1053)
UniProt Q9UJQ4, sequence (whole entry, looked up): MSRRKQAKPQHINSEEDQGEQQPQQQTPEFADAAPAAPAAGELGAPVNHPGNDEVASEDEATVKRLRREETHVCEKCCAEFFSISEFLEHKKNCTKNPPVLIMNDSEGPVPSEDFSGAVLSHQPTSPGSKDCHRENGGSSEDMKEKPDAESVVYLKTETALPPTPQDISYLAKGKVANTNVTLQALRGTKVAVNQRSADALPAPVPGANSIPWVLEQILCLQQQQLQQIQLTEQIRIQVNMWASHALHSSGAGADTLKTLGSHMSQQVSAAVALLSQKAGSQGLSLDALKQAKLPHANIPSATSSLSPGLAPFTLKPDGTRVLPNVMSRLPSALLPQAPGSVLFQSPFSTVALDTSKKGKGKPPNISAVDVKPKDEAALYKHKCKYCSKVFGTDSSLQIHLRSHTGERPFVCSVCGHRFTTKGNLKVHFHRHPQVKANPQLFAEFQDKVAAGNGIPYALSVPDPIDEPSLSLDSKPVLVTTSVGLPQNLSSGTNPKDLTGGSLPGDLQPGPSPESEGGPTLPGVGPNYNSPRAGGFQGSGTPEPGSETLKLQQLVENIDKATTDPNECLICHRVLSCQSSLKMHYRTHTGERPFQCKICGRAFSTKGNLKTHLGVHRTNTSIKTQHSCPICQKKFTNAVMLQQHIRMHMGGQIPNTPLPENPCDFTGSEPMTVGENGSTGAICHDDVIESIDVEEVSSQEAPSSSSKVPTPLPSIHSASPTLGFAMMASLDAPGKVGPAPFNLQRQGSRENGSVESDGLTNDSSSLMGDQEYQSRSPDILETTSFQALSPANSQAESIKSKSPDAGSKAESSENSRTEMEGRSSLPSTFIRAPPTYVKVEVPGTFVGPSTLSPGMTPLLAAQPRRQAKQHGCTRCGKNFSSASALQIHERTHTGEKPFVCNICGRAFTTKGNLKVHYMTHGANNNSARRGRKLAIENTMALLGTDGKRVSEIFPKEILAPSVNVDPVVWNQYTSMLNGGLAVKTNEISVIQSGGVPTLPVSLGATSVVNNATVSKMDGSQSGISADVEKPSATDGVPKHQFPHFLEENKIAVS
Notes: 8-mer, flanks averaged, mean of replicates
The E-score of `AGAATAGG` is reported as 0.158.
`AAATAACT` has an E-score of 0.321.
The E-score of `AGTGTCTA` is reported as 0.105.
For `CACTAACC`, the E-score was -0.159.
For `CACAATGG`, the E-score was 0.0528.
For `AACCACGG`, the E-score was -0.251.
For `AATTGAGG`, the E-score was 0.0119.
The E-score of `GGGTGTTA` is reported as 0.0298.
`AGTATTGG` gave an E-score of 0.185.
For `AATAAACG`, the E-score was 0.329.
`ATCCAGCG` gave an E-score of -0.112.
`ACACGACC` has an E-score of -0.164.
For `AAATCATC`, the E-score was 0.145.
`CCCGTTCA` has an E-score of -0.11.
For `CTCAGCTC`, the E-score was -0.265.
The E-score of `CCATATGG` is reported as 0.0275.
`ATCACGAA` has an E-score of 0.137.
`AATGATAG` gave an E-score of 0.219.
`CCGCAGCC` gave an E-score of -0.266.
`CAATACAC` has an E-score of 0.259.
`CATGTAAG` gave an E-score of 0.117.
The E-score of `TACGTCCA` is reported as -0.04.
`CAATCCAG` gave an E-score of -0.157.
For `TCGTGTAA`, the E-score was 0.104.
`TAGCCCGA` has an E-score of -0.198.

Study 2 — target: UBE2J1 UBC core domain (UniProt Q9Y385); method: yeast two-hybrid; medium: yeast; notes: mostly zero background; reference: not given; reading: higher = stronger interaction
B1: TRIM43 RING domain (UniProt Q96BQ3); chain FSHAFQKELTCVICLNYLVDPVTICCGHSFCRPCLCLSWEEAQSPANCPACREPSPKMDFKT
B2: RNF208 RING domain (UniProt Q9H0X6); chain SSAAAGEPLECPTCGHSYNVTQRRPRVLSCLHSVCEQCLQILYESCPKYKFISCPTCRRETVLFTDYG
B3: TRAF5 RING domain (UniProt O00463); chain FVERLEERYKCAFCHSVLHNPHQTGCGHRFCQHCILSLRELNTVPICPVDKEVIKSQEVFK
B4: RC3H1 RING domain (UniProt Q5TC82); chain QAPQWTDFLSCPICTQTFDETIRKPISLGCGHTVCKMCLNKLHRKACPFDQTTINTDIELL
B5: VPS41 RING domain (UniProt P49754); chain KGVLVDEENICESCLSPILPSDAAKPFSVVVFHCRHMFHKECLPMPSMNSAAQFCNICSAKNRGPGSAI
B6: DTX4 RING domain (UniProt Q9Y2E6); chain QKVRHPPDEDCTICMERLTAPSGYKGPQPTVKPDLVGKLSRCGHVYHIYCLVAMYNNGNKDGSLQCPTCKTIYGVKTGTQ
B7: TRIM4 RING domain (UniProt Q9C037); chain EAEDIQEELTCPICLDYFQDPVSIECGHNFCRGCLHRNWAPGGGPFPCPECRHPSAPAALRP
B8: TRIM40 RING domain (UniProt Q6P9F5); chain LQKDNQEEGVCPICQESLKEAVSTNCGHLFCRVCLTQHVEKASASGVFCCPLCRKPCSEEVLG
B9: TRIM24 RING domain (UniProt O15164); chain EAARLNLLDTCAVCHQNIQSRAPKLLPCLHSFCQRCLPAPQRYLMLPAPMLGSAETPPPVPAPGSPVSGSSPFATQVGVIRCPVCSQECAERHII
Residues (chain): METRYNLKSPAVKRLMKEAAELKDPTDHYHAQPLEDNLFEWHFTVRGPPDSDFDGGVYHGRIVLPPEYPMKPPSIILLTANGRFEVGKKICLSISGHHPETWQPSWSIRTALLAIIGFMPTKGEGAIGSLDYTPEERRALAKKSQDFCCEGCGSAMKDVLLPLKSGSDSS
For `B1 (TRIM43 RING domain)`, “lacZ reporter activity” read 0.
`B2 (RNF208 RING domain)` — result for “lacZ reporter activity”: 0.
`B3 (TRAF5 RING domain)` — result for “lacZ reporter activity”: 0.
For `B4 (RC3H1 RING domain)`, “lacZ reporter activity” read 0.
`B5 (VPS41 RING domain)`: “lacZ reporter activity” 0.
For `GAAPGPEAAECLVCSELALLVLFSPCQHRTVCEECARRMKKCIRCQVVVSKKLRPD (MIB2 RING domain (UniProt Q96AX9))`, “lacZ reporter activity” read 0.
Under “lacZ reporter activity”, `PAELEVQASECVVCLEREAQMIFLNCGHVCCCQQCCQPLRTCPLCRQDIAQRLRIY (LRSAM1 RING domain (UniProt Q6UWE0))` is recorded as 0.
`B6 (DTX4 RING domain)`: “lacZ reporter activity” 0.
`B7 (TRIM4 RING domain)` — result for “lacZ reporter activity”: 0.
Under “lacZ reporter activity”, `VEPSEENSKDCVVCQNGTVNWVLLPCRHTCLCDGCVKYFQQCPMCRQFVQESFALC (CGRRF1 RING domain (UniProt Q99675))` is recorded as 0.
Under “lacZ reporter activity”, `FQGDVDEDLICPICSGVLEEPVQAPHCEHAFCNACITQWFSQQQTCPVDRSVVTVAHLRP (RNF41 RING domain (UniProt Q9H4P4))` is recorded as 0.
Under “lacZ reporter activity”, `B8 (TRIM40 RING domain)` is recorded as 0.
Under “lacZ reporter activity”, `B9 (TRIM24 RING domain)` is recorded as 0.

Study 3 — method: protein-binding microarray; molecule type: double-stranded DNA, one strand shown; medium: in vitro; tested at: 0.8 µM; notes: whole 60-bp probe, no competitor; reading: higher = stronger binding; all sequences stand within: … GTCTTGATTCGCTTGACGCTGCTG
Target: Centromere-binding protein 1, full length, N-terminal tag (CBF1, Saccharomyces cerevisiae, UniProt P17106, residues 1-351)
UniProt P17106, sequence (whole entry, looked up): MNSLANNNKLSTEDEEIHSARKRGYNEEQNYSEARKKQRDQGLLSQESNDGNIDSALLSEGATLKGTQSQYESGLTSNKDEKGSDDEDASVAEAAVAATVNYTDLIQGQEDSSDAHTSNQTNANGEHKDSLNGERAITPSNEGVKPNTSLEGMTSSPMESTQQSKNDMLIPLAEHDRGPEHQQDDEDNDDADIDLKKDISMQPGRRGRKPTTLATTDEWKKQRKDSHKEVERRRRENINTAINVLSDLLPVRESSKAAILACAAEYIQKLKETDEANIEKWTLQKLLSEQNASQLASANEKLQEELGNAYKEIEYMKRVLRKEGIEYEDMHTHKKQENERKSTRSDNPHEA
For `CTATAATGTCCACGTGATGACATTTCAATCTGCTTC`, the fluorescence intensity was 15300 a.u.
With `TGTACGAAGCTATCGATCACCATTATAGTAGTTAGG` the fluorescence intensity was 508 a.u.
For `CTAACTTGGCTCCACCAGCTGATGTGTGCATTTTTC`, the fluorescence intensity was 574 a.u.
The fluorescence intensity of `CTATTTCATGATAATCATATGAGCATGTTTAATTTC` is reported as 571 a.u.
For `GAACATTTGCGCGACCACGTGACCCGCTGCGGCTAG`, the fluorescence intensity was 32000 a.u.
With `CTAGGGTTGTTTGATCACATTATTTTAATTTTTTTC` the fluorescence intensity was 992 a.u.
`GAAATTAATCCGGGTGACGCAGCCTGGAATTTTTAG` gave a fluorescence intensity of 511 a.u.
`CTATAAAACGAAGCCATCGTGCACAATGGTAAGTTC` has a fluorescence intensity of 515 a.u.
With `CTAATCACAAAGAATCACGAGGAAAAGATTGATTTC` the fluorescence intensity was 1170 a.u.
With `CTAATTATGCTGAAGTACGTGGTGACGGATATTTTC` the fluorescence intensity was 545 a.u.
With `CTATCCAGGGAGAATCAGCAGAAACGAGACGAATTC` the fluorescence intensity was 520 a.u.
For `CCTAACTACTATATGCATGTGAAATAGCTTCGTACA`, the fluorescence intensity was 567 a.u.
For `TGTACGAAGCTATAGCACGTGCATATAGTAGTTAGG`, the fluorescence intensity was 11400 a.u.
`CTACCAATTAAGCACCACCTAGTGCGTCTAGTGTTC` gave a fluorescence intensity of 505 a.u.
The fluorescence intensity of `GAATCCGGAGGGTGTCACCCCCCCTCTCTCAACTAG` is reported as 503 a.u.
For `CTAAAGGCTGGTGAACGCCTGATGCGAGCTATATTC`, the fluorescence intensity was 509 a.u.
`GAAATCGACGATGCACACGTTATTGATAAACATTAG` has a fluorescence intensity of 623 a.u.
For `GAAATTATTCATCCGCACGTGGCTGCACACGTGTAG`, the fluorescence intensity was 10100 a.u.
`CTATGTTACAATTACCAGGTGAGTAGGATAGGATTC` gave a fluorescence intensity of 556 a.u.

Study 4 — method: RNA Bind-n-Seq; molecule type: RNA; medium: in vitro; tested at: 365 nM; reference: no-protein control; reading: higher = stronger binding
Target: RNA binding protein fox-1 homolog 2, RRM domain, GST-SBP tag (RBFOX2, Homo sapiens, UniProt O43251-10, residues 100-194)
Notes: natural RNA segment, single round, ends assumed
All sequences stand within: GGGAGUUCUACAGUCCGACGAUC … UGGAAUUCUCGGGUGCCAA
Residues (chain): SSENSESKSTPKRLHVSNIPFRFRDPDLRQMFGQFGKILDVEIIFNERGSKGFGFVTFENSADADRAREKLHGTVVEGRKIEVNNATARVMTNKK
`CCAACACAGACACCCAAGCAGAGCAAUCAGUUAGUGAAUUGAAUGGAAAUAAACGCUUUAGUUAUAAUAUGACCCCUGUUCUCUGUAAGUUCCAAGGGAGACCUUGGUAC`: “RBNS enrichment (R)” 0.625.
For `GACUUUUCUUUUGGGGCAAGUUCAGUGUAUUUAUGUGAAACUUUAUAAGAGAACUAAUUUUUCCAUUUGCAUAUUAAUAUGUUCCUCUAUACAUGUAAAGACACAGUGGC`, “RBNS enrichment (R)” read 0.406.
For `AGGGGAGGACUGGGGCUGGAAGUCCAGCACCCAGGGAAGAUCUGUCCUCCUGUUCUUGGGAAGCGUUGCCUGACGGCUUCUCGGCUCUACCCUCACCCUUCUGGCCAGGA`, “RBNS enrichment (R)” read 1.62.
`GACUUGAAUGGAUAGAAUAGAAAUGAAUAAGCUGGUUUUUGUUUUUCCAAAUGAGAUUUAGAUUUGUUUUUCUCAUGCAUAAAUGAUUUUAAUUCAGUUUUAACCAGUGA`: “RBNS enrichment (R)” 1.88.
Under “RBNS enrichment (R)”, `CUACUUUUUGACUUCUGUUUGUCUUACGCUUCUCUCAGGGAAAAACAUGCAGUCCUCUAGUGUUUCAUGUACAUUCUGUGGGGGGUGAACACCUUGGUUCUGGUUAAACA` is recorded as 0.503.
Under “RBNS enrichment (R)”, `GUGCACAGUGCCCAAACAGCAAUAGAAAGGCUUACUUAUAACCAAACUCCAAGUGAUAGUGAGACCCAUCUCUCCUCUACCUUGAAGAGAGCAGAUCAUAGUAUAUGAGA` is recorded as 0.754.
`GGCCUCUUGGAUCCACUGGCCCAGAGAUUUAAAAGUUUGGGGUUGAGGAUGUGUGUAGCUCAGUUGGUAGACUGAUUGCCCUACAUGAACGGGACUGAAUUUGAUCACCA`: “RBNS enrichment (R)” 0.385.
For `GAGGACUUUUAGAUUUAGUGAAGAUGGUAGGGUGGAAAGACUUAAUUUCCUUGUUGAGAACAGGAAAGUGGCCAGUAGCCAGGCAAGUCAUAGAAUUGAUUACCCGCCGA`, “RBNS enrichment (R)” read 1.12.
For `GCGUCUCCCACCUUUGGUACCAUCUCUAGUCAUCCUUCCUCCCGGAAGUUGACAAGACACAUCUUGAGUAUGGCUGGCACUGGUUCCUCCAUCAAGAACCAAGUUCACCU`, “RBNS enrichment (R)” read 0.203.
For `GCAAGGCAUUCGUUUCCUUACUUUGGAAUAGUAUUUAUGUUGAAUUGUAAACCCACAGUUGUAAGCUUAGUGACUUCACAUGUAUGUAGCAUUGGUACUGGUCUGAGCCA`, “RBNS enrichment (R)” read 2.99.
Under “RBNS enrichment (R)”, `GCAUGGGCUUUUGCUCCAUCACCGCAAAGUUCUGCAGGGGCCCUGGGCAGUGCUGGCCUGUCUGACGUGCUGCCCUUGGCCUCCUUGCUCUCCACGUGUGGAAGCGCAUC` is recorded as 0.963.
`AAGAAUAGUAUGCCAGCAAUCCCUGAUUCUCUCUCUGCUUGGUGUUCUCUGGCAGCACUAAGACAAAGGAACAGGGACUAGGAGUUUACGUGCUUAUCACAGGUCCUUGG` — result for “RBNS enrichment (R)”: 0.316.

Repeated from above (study 1):
For `AACCACGG`, the E-score was -0.251.
For `AATTGAGG`, the E-score was 0.0119.
The E-score of `GGGTGTTA` is reported as 0.0298.
`AGTATTGG` gave an E-score of 0.185.
For `AATAAACG`, the E-score was 0.329.
`ATCCAGCG` gave an E-score of -0.112.
`ACACGACC` has an E-score of -0.164.
